Results gathered from unrelated publications.
Every numbered part comes from another study and shows a few of its results, in no order. Changes are numbered by the printed parent chain.

Block 1 — target: CCNA2, cyclin fold, Cln2 fusion (human); method: yeast growth competition, sequencing; sample: yeast; notes: strong parent motif; reference: not given; reading: higher = stronger binding; measurement: normalised enrichment score
Starting sequence: SAMHD1 docking peptide (human); ASKSRVQLFKDDP; partner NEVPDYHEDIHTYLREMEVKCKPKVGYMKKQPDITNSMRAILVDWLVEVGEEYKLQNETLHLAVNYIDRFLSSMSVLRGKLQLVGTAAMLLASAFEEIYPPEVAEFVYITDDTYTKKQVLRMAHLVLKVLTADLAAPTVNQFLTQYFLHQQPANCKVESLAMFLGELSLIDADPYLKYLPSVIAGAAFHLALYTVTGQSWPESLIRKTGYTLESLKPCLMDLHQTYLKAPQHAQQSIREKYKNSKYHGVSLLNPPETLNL
ASKSRVQTFKDDP [L8T]: -0.22
ASKSRVVLFKDDP [Q7V]: 1.33
ASKSRVQLKKDDP [F9K]: 0.311
AFKSRVQLFKDDP [S2F]: 3.38
ASQSRVQLFKDDP [K3Q]: 0.743
ASKSRVQLFKHDP [D11H]: 1.88
ASKSRVQEFKDDP [L8E]: 0.16
ASKSRVQLAKDDP [F9A]: 0.0749
ASKSRVQLFADDP [K10A]: 2.24
ASKRRVQLFKDDP [S4R]: 1.35
ASDSRVQLFKDDP [K3D]: -0.114
ASKSRWQLFKDDP [V6W]: 0.469
ASKSRVTLFKDDP [Q7T]: 0.913
AEKSRVQLFKDDP [S2E]: 1.59
ASKSRLQLFKDDP [V6L]: 1.64
ASKSRVQLFKQDP [D11Q]: 1.95
ARKSRVQLFKDDP [S2R]: 3.09

Block 2 — method: RNA Bind-n-Seq; molecule type: RNA; sample: in vitro; tested at: 365 nM; reference: no-protein control; reading: higher = stronger binding; measurement: RBNS enrichment (R)
Target: RNA binding protein fox-1 homolog 2, RRM domain, GST-SBP tag (RBFOX2, Homo sapiens, UniProt O43251-10, residues 100-194)
Notes: natural RNA segment, single round, ends assumed
All sequences stand within: GGGAGUUCUACAGUCCGACGAUC … UGGAAUUCUCGGGUGCCAA
Residues (chain): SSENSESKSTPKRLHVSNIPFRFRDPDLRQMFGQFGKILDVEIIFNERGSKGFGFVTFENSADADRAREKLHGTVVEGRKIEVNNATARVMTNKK
UCCCCUGCUUAACUGCAGCCUGGAUAGCUGAGCUGCUGCUGAGGGCACGCCGUGCGCGACGGCUGACCUGGCAGCGUAGAGUGGGAUGAUCUAAAACUAAAGCUGCCUGU: 0.513
GCAGGACAGUACGAUUUGGGGAGAACCCAGCUCCCCACUUUAUCUGCAGACUCUGGGACCUGACAAAACAGUCAGAGCCUGAGUGCACUGCAGCCUGAACUCCCUUGAGC: 0.326
UCAGCACUCUGCAGAGCACAGGCUGAGCUGCUCUGAGUACGGGGUGGCCUGAGUGUGGAGGACAAAGGAGGUCCAUGUCCUGCUUGCUGGAGACAGCUGGCCAGAAUCGU: 0.521
UCUGUGGACAUAAUUCUGACCGAAACCCAUGAAGUUACUUCAGUAUAAGAAGAACGUUACACGGAAAUCACCAAAUAUUUUGCAACUUUAUUUCUUCUGACAUGGAGUGA: 0.373
GAGUUGAAUGUGCACACGUUUAUGAGAGGCCUUUGGGUGAGCUUUCUGCUCAUUCCUUGGUUUGUCUUGGGUCCCACUGGGCAGGUGUCUAGCACUGAGAGGGAGAGUGU: 0.696
AGCAAACUCAACCAAGAACUGCUCAUUCAGACUCGUGAAACGACCCAGAGAGGGCUCAGAAACGGCCCAGGAAGGCCCAGGGCCUUCCUGGCGUGAUUGACGAUCUGAGU: 0.212
GCAGUGAUUCCUCUCAUAGCUCUGGGAUGGGGCUUGGUUAGGGUGUCGUGAUGGAAAUAAACCUGAACCUGUUGCCCAGUACCAGGGCCUCUGCUGUUUGGUCUUCACUC: 0.282
CUCACAUGUCACUUCCAGAGGAACGGGGGACAGCCAGGCUCGCCCAUGGGCCUUCAGGAAUAUUUAUACAUGGCCCAGCCUGCACUGCCCGGGCGAGGGCAGAGGACACU: 0.617
ACAAAACGAAACAAACCUCUCCAGUCUCUAAUUUAUGCCUAUGCAAAAAAUAAAGGAUGCCCAGGAUAUUGGAGUGUGCUUUUUUCUGGUUGUCACAGAGCAACUCAGCU: 0.606
AGAAGUUGGGGGGGAUGUGAAAAUAAUUUUAUGAGGUUGUCUAAAAUAAAGAGUAGUUUCUUAUCCUGGUGUUUUCAGUAUUUUUUGCAUUUCUGUACAGCCAAUAUCAC: 1.71
UCCCUGAGGUGAGGUUCAGGUUUAUGUCCCUGUCUGUGGCAUAGAUACAUCUCAGUGACCCAGGGUGGGAGGGCUAUCAGGGUGCAUGGCCCGGGACACGGGCACUCUUC: 14.5
AAGGCUUUGCGGCCUGCGCAGACUAUAUCCUGCUUCAGACUAGAUACAAUUGCCCCUUUUUAUAUAUACACCUCCACAAGACAUGCGUAUUAAACAGAUUGUCUCAUCGU: 0.304

Block 3 — method: protein binding microarray; molecule type: double-stranded DNA, one strand shown; sample: in vitro; tested at: not given; reference: not given; reading: higher = stronger binding; measurement: E-score
Target: Histone acetyltransferase KAT6A, winged helix 1, GST fusion (KAT6A, Homo sapiens, UniProt Q92794, residues 1-85)
Notes: 8-mer, flanks averaged, mean of 2 arrays, mostly near background
Target sequence (chain): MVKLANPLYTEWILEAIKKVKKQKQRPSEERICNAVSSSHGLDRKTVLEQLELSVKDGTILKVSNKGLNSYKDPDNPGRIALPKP
AGCATATG: -0.0652
AGGCCGTG: 0.286
GCCTCCAC: 0.0476
AGCACGCG: 0.224
GAAGCGTC: 0.166
AATCGGAG: -0.128
AGCCGAGC: 0.186
CACCGCCA: -0.0129
CATGAAAA: -0.223
AAAGTTGC: -0.0713
AGTGAGAC: -0.156
CCGTACCC: 0.342
ATTGATGG: -0.2
ACACGTGC: 0.0519
ATCTTAGA: -0.0854
AATTCAGC: -0.0694
AGGTTGTC: -0.247
CTCGACTA: -0.14
TACGACAA: -0.186
AATGATCT: -0.0827
AAAATCAG: -0.189

Block 4 — method: DHFR PCA, deep sequencing; sample: yeast; added: (+)-ABA 0.39 µM; reference: wild-type fitted maximum; reading: higher = stronger binding; measurement: relative binding score
Target: ABI1, truncated, D143A, DHFR fusion (Arabidopsis thaliana)
Notes: methotrexate growth selection, single substitutions
Starting sequence: PYL1, truncated, DHFR fusion (Arabidopsis thaliana); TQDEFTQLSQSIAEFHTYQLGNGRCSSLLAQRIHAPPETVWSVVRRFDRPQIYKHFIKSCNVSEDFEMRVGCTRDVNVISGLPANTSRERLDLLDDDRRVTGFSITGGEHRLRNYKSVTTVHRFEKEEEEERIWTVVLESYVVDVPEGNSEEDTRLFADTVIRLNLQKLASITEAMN
R49C: 38.3%
T1W: 38.1%
V40E: -5.97%
T6L: 47.8%
C60N: -8.64%
R46C: 20.1%
A170F: -30.5%
R163G: 21.9%
V70Y: 2.14%
R69V: 51.3%
H122V: -12.6%
V78T: 24%
D48Y: 11.1%
Q2N: 41.3%
E67K: 35.1%
E128M: 31%
L28R: -0.607%
P83R: 11.6%
C25H: 5.59%
P146S: 8.35%
F15A: -7.57%
P146R: 2%
F103G: -12.4%

Block 5 — target: DDIT3, bZIP domain (human); method: DHFR protein complementation; sample: yeast; reference: wild-type JUN-FOS pair; reading: higher = stronger binding; measurement: binding fitness
Notes: single substitutions, most at no-binding floor
Starting sequence: JUN, bZIP domain (human); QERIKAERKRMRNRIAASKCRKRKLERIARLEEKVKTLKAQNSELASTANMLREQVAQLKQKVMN; partner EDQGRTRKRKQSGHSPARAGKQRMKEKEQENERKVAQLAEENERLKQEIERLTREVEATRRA
E44H: -0.0667 natural log
L45H: -1.19 natural log
T48E: -0.149 natural log
A40F: -0.116 natural log
R53H: -0.542 natural log
N42L: -1.06 natural log
L31R: -0.865 natural log
L31C: -0.773 natural log
M51D: 0.0734 natural log
E44S: -0.105 natural log
T37F: 0.116 natural log
K39A: -0.00638 natural log
K39D: -0.371 natural log
V56E: -0.671 natural log
R30V: 0.198 natural log

Block 6 — target: CRIPT, C-terminal peptide; method: DHFR complementation, deep sequencing; sample: yeast; reference: wild type; reading: higher = weaker binding; measurement: binding free energy change
Notes: single substitutions, model-inferred values
Starting sequence: ERBIN, PDZ domain 1 (human); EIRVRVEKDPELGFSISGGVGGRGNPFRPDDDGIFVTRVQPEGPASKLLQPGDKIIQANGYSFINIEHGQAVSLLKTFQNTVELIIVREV; partner TKNYKQTSV
K47G: -0.0339 kcal/mol
T37A: 0.369 kcal/mol
D32H: 0.333 kcal/mol
N59S: 0.171 kcal/mol
I2D: 1.37 kcal/mol
G13F: -0.0972 kcal/mol
D32F: 0.592 kcal/mol
L75Q: 1.04 kcal/mol
F14M: -0.652 kcal/mol
D30V: 0.357 kcal/mol
V4W: 0.415 kcal/mol
N25R: 0.902 kcal/mol
F27H: 0.796 kcal/mol
V4E: 0.822 kcal/mol
Q50V: -0.0464 kcal/mol
R3M: -0.107 kcal/mol
L49V: -0.334 kcal/mol
P29E: -0.201 kcal/mol
P51D: 0.448 kcal/mol
N25C: 0.939 kcal/mol

Block 7 — method: protein-binding microarray; molecule type: double-stranded DNA, one strand shown; sample: in vitro; tested at: not given; reading: higher = stronger binding; measurement: E-score
Target: Protein C-ets-1 (ETS1, Homo sapiens, UniProt P14921, residues 1-441, K379A, full length assumed)
Notes: k-mer, scored over probes, only values ≥0.25
Target sequence (chain): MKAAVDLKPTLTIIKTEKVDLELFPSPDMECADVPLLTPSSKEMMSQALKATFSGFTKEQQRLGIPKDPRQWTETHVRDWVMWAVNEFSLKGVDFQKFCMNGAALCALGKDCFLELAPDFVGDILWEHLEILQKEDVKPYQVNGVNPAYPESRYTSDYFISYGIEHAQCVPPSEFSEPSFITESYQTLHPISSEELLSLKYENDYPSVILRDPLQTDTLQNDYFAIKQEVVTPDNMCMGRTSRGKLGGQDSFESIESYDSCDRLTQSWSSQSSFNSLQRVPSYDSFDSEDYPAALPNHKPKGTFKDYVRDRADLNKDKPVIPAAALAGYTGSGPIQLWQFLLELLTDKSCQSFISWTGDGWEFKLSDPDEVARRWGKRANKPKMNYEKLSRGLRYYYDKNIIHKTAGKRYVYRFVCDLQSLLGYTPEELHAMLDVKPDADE
AACCGTCG: 0.326
CCGGAAAC: 0.437
CACCGGCG: 0.391
ACCGGAGT: 0.396
GCGGAAGC: 0.256
TACACCGA: 0.253
ATTTAATG: 0.286
CGGCACCG: 0.263
CCGGATAC: 0.383
CCGTACTA: 0.252
CATACCGC: 0.252
CAATAACC: 0.262

Repeated from above (block 3):
GAAGCGTC: 0.166
AATCGGAG: -0.128
AGCCGAGC: 0.186
CACCGCCA: -0.0129
CATGAAAA: -0.223
AAAGTTGC: -0.0713
AGTGAGAC: -0.156
CCGTACCC: 0.342
ATTGATGG: -0.2
